Measured values gathered from unrelated publications.
Numbers after ± are the reported error.
Organism: Salmonella typhimurium

O=[N+]([O-])c1ccc(N2CCN(CCC(O)c3ccc(F)cc3)CC2)c(C(F)(F)F)c1 (stereo not drawn)
induction factor (genotoxicity, SOS/umu test; TA1535/pSK1002; 0.031 mg/mL, 4 h, with S9, lower range): 0.9

COc1cccc(-c2n[nH]c(SCc3ccccn3)n2)c1OC
revertant colonies per plate (Ames test, preincubation; TA98; 0.25 mg/plate, with rat liver S9): 26

Fc1ccc(C2=CCNCC2)cc1
induction factor (SOS response, SOS/umu test; TA1535/pSK1002, TGA medium; 0.5 mg/mL, 4 h, together with: 10% rat liver S9; reference: untreated): 1.3

CN(N=O)c1ccc(F)cc1
revertant colonies per plate (mutagenicity, Ames plate incorporation; TA98; 500 µg/plate, 3 d, without S9, methanol): 20 ± 5

Cc1cc(C(=O)NC(C)(C)COc2cccc3c2C(N)=NS(=O)(=O)N3)cc(C)n1
revertant ratio (Ames test, initial; TA98; 150 µg/plate; reference: solvent control): 1.3

CNC(=O)c1c(N(C)N=O)ncn1C
revertant colonies per plate (plate incorporation; TA1535, water; 2500 µg/plate, without S9): 31.7 ± 4

O=[N+]([O-])c1ccc(N2CCC(NCCC(O)c3ccc(F)c4ccccc34)CC2)c(C(F)(F)F)c1 (stereo not drawn)
survival (SOS/umu test; TA1535/pSK1002; 0.016 mg/mL, 4 h, with S9, full range): 74.8%

CC(C)N(C)N=O
revertant colonies per plate (mutagenicity, Ames plate incorporation; TA1537; 150 µg/plate, 3 d, without S9, methanol): 12.7 ± 2

CC(=O)N1CCC(C(=O)N2CCN3C(=O)c4cc(-c5ccccc5)ccc4NC(=O)C3C2)CC1 (stereo not drawn)
fold increase in revertants (TA1537; 5000 µg/plate; reference: vehicle): 1.8

For quick reference, copied from above:
CC(=O)N1CCC(C(=O)N2CCN3C(=O)c4cc(-c5ccccc5)ccc4NC(=O)C3C2)CC1 (stereo not drawn)
fold increase in revertants (TA1537; 5000 µg/plate; reference: vehicle): 1.8
